# Measured values from different studies.
# Each numbered part is a random draw from the data of one study; scales do not carry over between parts.

# Sample 1
# Target: Histone acetyltransferase KAT6A, both winged helices, GST fusion (KAT6A, Homo sapiens, UniProt Q92794, residues 1-181)
# Technique: protein binding microarray
# Molecule type: double-stranded DNA, one strand shown
# Sample: in vitro
# Concentration: not given
# Setting: 8-mer, flanks averaged, mean of 2 arrays, mostly near background
# Relative to: not given
# Direction: higher = stronger binding
# Target sequence (chain): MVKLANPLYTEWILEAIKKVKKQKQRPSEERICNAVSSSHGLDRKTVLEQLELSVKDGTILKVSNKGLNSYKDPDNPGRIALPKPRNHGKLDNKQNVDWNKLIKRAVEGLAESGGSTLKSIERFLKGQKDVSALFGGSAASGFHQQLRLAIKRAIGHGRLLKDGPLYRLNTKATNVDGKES
Sequence,E-score
ACGACGCT,0.0605
AACCTCAG,-0.0684
ATTTGTCG,-0.0386
TAAGGACA,-0.00175
CATAGTTC,-0.137
GGTCTGGA,-0.0503

# Sample 2
# Target: Interferon regulatory factor 5, full length, phosphomimetic (IRF5, Homo sapiens, UniProt Q13568-2, residues 1-514, S451D/S453D/S456D/S462D)
# Technique: protein-binding microarray
# Molecule type: double-stranded DNA, one strand shown
# Sample: in vitro
# Concentration: 940 nM top
# Setting: 60-bp whole probe
# Together with: salmon DNA 0.4 mg/ml
# Relative to: random background probes
# Direction: higher = stronger binding
Sequence,fitted relative affinity
GCCTAGCACTTTGGTATCGGTCTCGGTTAGTGCTAGGTCTTGATTCGCTTGACGCTGCTG,13.9 z-score
GCCTAGCACGACGGTCTCGGACTGGGGATGTGCTAGGTCTTGATTCGCTTGACGCTGCTG,0.783 z-score
GCCTAGCACGACGGTTTACTTTCCCTGACGTGCTAGGTCTTGATTCGCTTGACGCTGCTG,0.976 z-score
GCCTAGCACCACGGTTTCCTTCTCCTGACGTGCTAGGTCTTGATTCGCTTGACGCTGCTG,1.43 z-score

# Sample 3
# Target: Sal-like protein 4, full length isoform A (SALL4, Homo sapiens, UniProt Q9UJQ4, residues 1-1053)
# UniProt Q9UJQ4, sequence (whole entry, looked up): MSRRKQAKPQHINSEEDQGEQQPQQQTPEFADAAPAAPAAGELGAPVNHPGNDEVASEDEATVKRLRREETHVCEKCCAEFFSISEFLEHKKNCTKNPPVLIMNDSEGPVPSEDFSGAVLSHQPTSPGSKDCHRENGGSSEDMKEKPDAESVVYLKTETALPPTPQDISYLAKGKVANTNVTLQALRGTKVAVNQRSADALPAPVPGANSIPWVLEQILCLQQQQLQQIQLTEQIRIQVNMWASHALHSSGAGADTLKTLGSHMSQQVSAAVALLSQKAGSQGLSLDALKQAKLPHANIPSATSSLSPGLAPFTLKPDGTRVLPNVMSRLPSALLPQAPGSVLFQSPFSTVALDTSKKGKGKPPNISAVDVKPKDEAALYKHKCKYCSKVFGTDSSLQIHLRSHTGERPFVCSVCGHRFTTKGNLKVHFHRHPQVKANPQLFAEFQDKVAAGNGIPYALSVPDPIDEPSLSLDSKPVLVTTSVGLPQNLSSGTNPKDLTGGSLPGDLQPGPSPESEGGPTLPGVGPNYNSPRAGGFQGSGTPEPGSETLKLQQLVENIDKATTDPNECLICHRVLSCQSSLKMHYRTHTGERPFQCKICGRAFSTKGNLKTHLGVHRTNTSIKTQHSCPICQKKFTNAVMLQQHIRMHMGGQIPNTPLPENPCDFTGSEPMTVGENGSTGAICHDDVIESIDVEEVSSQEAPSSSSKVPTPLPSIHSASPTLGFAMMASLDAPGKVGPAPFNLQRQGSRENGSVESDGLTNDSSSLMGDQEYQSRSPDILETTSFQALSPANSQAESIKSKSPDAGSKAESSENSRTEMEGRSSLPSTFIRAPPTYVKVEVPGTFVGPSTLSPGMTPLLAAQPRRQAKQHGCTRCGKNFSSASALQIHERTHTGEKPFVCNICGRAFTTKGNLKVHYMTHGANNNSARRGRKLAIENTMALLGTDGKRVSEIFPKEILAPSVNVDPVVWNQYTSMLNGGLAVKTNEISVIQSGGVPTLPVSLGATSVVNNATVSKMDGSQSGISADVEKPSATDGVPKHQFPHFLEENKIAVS
# Technique: universal PBM
# Molecule type: double-stranded DNA, one strand shown
# Sample: in vitro
# Concentration: 600 nM
# Setting: 8-mer, flanks averaged, mean of replicates
# Direction: higher = stronger binding
Sequence,E-score
AAGGTGTG,-0.0136
GATGATGA,0.0471
ATAGCCTG,-0.00139
AGTAGCAT,0.0562
CGTAAGAG,-0.021
GGTATCAA,-0.0246
GGCCCCAA,-0.214

# Further values, each from its own experiment
Molecule,target,assay,system,conditions,scale,measurement,value
"PhoQ, residues 284 288 289 292 302 303 SSLVEF","PhoP, residues 12 14 15 18 19 NHFIF (Escherichia coli, UniProt P23836)","Sort-seq, refers to: YFP reporter",E. coli,"PhoQ-PhoP variant library, together with: 10 µM Mg2+","relative to: high Mg2+ state, higher = stronger signaling",fold induction,6.39

# For quick reference, copied from above (sample 1):
Sequence,E-score
AACCTCAG,-0.0684
